Assay results collected from several papers.
Each line is one published result; not all experiments were run side by side. Numbers after ± are the reported error.

Cc1cc(Nc2cc3ncccc3c(N[C@@H]3C[C@H]4CC[C@@H](C3)N4CCC#N)n2)n[nH]1
Cmax (male BALB/c mice, colon; oral, 10 mg/kg): 9.17 ± 10.3 µM

CC(O)CCc1ccc(O)cc1 (centres unmarked)
Cmax (male C57BL/6J mice, low-fat diet, plasma; oral, 200 mg/kg of RK, after enzymatic deconjugation): 103 ± 3.26 µM

O=C(c1ccc(OCCN2CCCCC2)cc1)c1c(-c2ccc(O)cc2)sc2cc(O)ccc12
Cmax (C57BL/6 mice male, plasma; oral, 20 mg/kg, geometric mean): 0.14 µM

O=c1c(O)c(-c2ccc(O)cc2)oc2cc(OS(=O)(=O)O)cc(O)c12
Cmax (FVB mice, male, Mrp2^−/−, plasma; oral, 10 mg/kg of kaempferol): 0.616 ± 0.059 µM

CC(=O)CCc1ccc(O)cc1
Cmax (male C57BL/6J mice, low-fat diet, plasma; oral, 200 mg/kg, after enzymatic deconjugation): 243 ± 19.6 µM

CN1CCN(c2ccc3nc(-c4c(N)c5c(F)cccc5[nH]c4=O)[nH]c3c2)CC1
Cmax (NOD/SCID mice, male, blood or plasma; oral, 30 mg/kg once daily, day 1): 373 ± 14.6 ng/mL

OCCc1ccc(O)cc1
Cmax (Balb/c tumour-bearing mice, plasma; oral, 109.2 mg/kg SNZ): 134 ng/mL

C[C@@H]1CCN(C(=O)CC#N)C[C@@H]1N(C)c1ncnc2[nH]ccc12
Cmax (male BALB/c mice, plasma; oral, 10 mg/kg): 0.62 ± 0.075 µM

COc1ccc2c(c1OCCCCS(=O)(=O)O)C(=O)O[C@@H]2[C@H]1c2c(cc3c(c2OC)OCO3)CCN1C
Cmax (CD-1 mice, male, plasma; oral gavage, 50 mg/kg): 2970 ± 60.1 ng/mL

CC[C@H](C)[C@@H]1NC(=O)[C@H](Cc2ccc(O)cc2)NC(=O)[C@@H](N)CSSC[C@@H](C(=O)N2CCC[C@H]2C(=O)N[C@@H](CC(C)C)C(=O)NCC(N)=O)NC(=O)[C@H](CC(N)=O)NC(=O)[C@H](CCC(N)=O)NC1=O
Cmax (microdialysis, radioimmunoassay; C57BL/6J male mice, wild type, amygdala extracellular fluid; intraperitoneal, 12 µg total, i=12): 1.25 ± 0.37 pg/sample

COc1ccc(CCC(C)=O)cc1
Cmax (male C57BL/6J mice low-fat diet, plasma; oral, 200 mg/kg, diet 8 weeks): 0.055 ± 0.018 µM

Cc1cc(Oc2nccc3occc23)ccc1-c1c(C)c(=O)[nH]c(=O)n1C
Cmax (Swiss albino male mice, plasma; intraperitoneal, 50 mg/kg): ~100 µM

O=C(O[C@@H]1Cc2c(O)cc(O)cc2O[C@@H]1c1cc(O)c(O)c(O)c1)c1cc(O)c(O)c(O)c1
Cmax (male CB17 SCID mice, plasma; intravenous, 100 mg/kg, earliest sampling 5 min): 240 µM

CC(=O)C=Cc1ccc(O)c(O)c1
Cmax (male C57BL/6J mice low-fat diet, plasma; oral, 200 mg/kg, after enzymatic deconjugation): 0.48 ± 0.06 µM

Cn1cnc2c(F)c(Nc3ccc(Br)cc3Cl)c(C(=O)NOCCO)cc21
Cmax (nude mice with A-375 tumours, plasma; oral, 10 mg/kg once daily, 7 days, steady state): 2980 ng/mL

Nc1cc(-c2ccccc2)ccc1Cn1cncc1CNc1ccc(Cl)c(-c2ccccc2)c1
Cmax (female BALB/c mice, plasma; oral, 50 mg/kg single dose): 2800 ng/mL

OCCc1ccc(O)cc1
Cmax (obese male C57BL/6J mice, plasma; oral, 200 mg/kg, high-fat diet 8 weeks): 22.3 ± 7.6 µM
